Measured values from different studies.
Compare with care: the assays were run in different laboratories. Numbers after ± are the reported error.
Sequence of UniProt P78329 (whole entry, looked up): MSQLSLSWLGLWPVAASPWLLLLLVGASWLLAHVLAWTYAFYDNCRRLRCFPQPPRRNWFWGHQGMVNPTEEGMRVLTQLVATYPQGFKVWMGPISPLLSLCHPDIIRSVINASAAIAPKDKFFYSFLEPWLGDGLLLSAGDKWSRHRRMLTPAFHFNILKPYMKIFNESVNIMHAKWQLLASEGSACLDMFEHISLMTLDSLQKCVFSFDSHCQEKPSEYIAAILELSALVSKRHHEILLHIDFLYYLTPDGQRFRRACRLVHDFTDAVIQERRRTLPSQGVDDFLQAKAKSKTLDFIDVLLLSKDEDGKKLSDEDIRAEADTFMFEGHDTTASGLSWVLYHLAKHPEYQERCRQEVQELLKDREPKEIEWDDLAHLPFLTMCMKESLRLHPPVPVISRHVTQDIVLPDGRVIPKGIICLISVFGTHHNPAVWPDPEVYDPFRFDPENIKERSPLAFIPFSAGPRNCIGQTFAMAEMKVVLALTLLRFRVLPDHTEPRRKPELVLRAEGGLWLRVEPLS

COc1ccc2c3c1O[C@H]1[C@H](O)CC[C@@]4(O)[C@@H](C2)N(C)CC[C@]314
logP (1 h): 1.21

CCN(CC)CCOc1ccc(-c2nnn(Cc3ccc(OC)cc3)c2N)cc1
IC50 (SLCO1B1 (Homo sapiens, UniProt Q9Y6L6); transporter uptake, inhibitor): > 100 µM

CC[C@H](C)[C@H](NC(=O)[C@H](CCCCN)NC(=O)CNC(=O)[C@H](CC(C)C)NC(=O)[C@H](Cc1ccccc1)NC(=O)[C@H](CCCCN)NC(=O)[C@H](CO)NC(=O)[C@H](Cc1ccccc1)NC(=O)[C@H](Cc1c[nH]c2ccccc12)NC(=O)[C@H](CCC(N)=O)NC(=O)[C@@H](NC(=O)[C@H](Cc1ccccc1)NC(=O)CCCCCNC(=O)CN1CCN(CC(=O)O)CCN(CC(=O)O)CCN(CC(=O)O)CC1)C(C)C)C(=O)N[C@@H](CCC(=O)O)C(=O)N1CCC[C@H]1C(=O)N[C@@H](CC(=O)O)C(=O)N[C@H](C(=O)N[C@@H](CO)C(=O)N[C@@H](CCC(N)=O)C(=O)N[C@H](C(=O)N[C@@H](CCC(N)=O)C(=O)N[C@@H](CC(=O)O)C(=O)N1CCC[C@H]1C(=O)N[C@@H](CC(N)=O)C(=O)N[C@@H](CC(=O)O)C(=O)N[C@@H](CCC(N)=O)C(=O)N[C@@H](Cc1ccc(O)cc1)C(=O)N[C@@H](CCC(=O)O)C(=O)N1CCC[C@H]1C(=O)N[C@@H](Cc1ccccc1)C(=O)O)C(C)C)C(C)C [copper-64 labelled]
SUVmean (dynamic PET; mouse both sexes, CT26 tumour, checkpoint inhibitor-treated, tumour; intravenous, 100 µCi/mouse, 510 s): 4.11 SUV

[2H]c1nc([2H])c(-c2nc([2H])n3c2C([2H])([2H])N=C(c2ccccn2)c2cc(C#C)ccc2-3)o1
AUC(0-t) (Sprague Dawley rat, plasma; oral, 2 mg/kg, 0 to 24 h, cassette dosing): 1370 ng·h/mL

COc1cc2nc(NC3CCN(Cc4ccc(C(N)=O)cc4)CC3)nc(Oc3c(C)cc(C#N)cc3C)c2cc1OC
selectivity index (HIV-1; MT4, IIIB wild type; reference: CC50 over EC50): 3470

O=C1NC2(CC2)COc2ncc(F)cc2[C@H]2COCCN2c2ccn3ncc1c3n2
organ-to-body weight ratio (Sprague-Dawley rat, female, ovaries; oral, 2.5 mg/kg/day, 4 weeks dosing, end of recovery): 0.037 ± 0.004%

CC(=O)NCCCC[C@@H]1NC(=O)[C@H](Cc2c[nH]c3c(C)cccc23)NC(=O)[C@H]([C@@H](C)O)NC(=O)[C@H](CC(N)=O)NC(=O)[C@@H](NC(C)=O)C(C)(C)SSC(C)(C)[C@@H](C(=O)N[C@@H](Cc2ccc(OCCN)cc2)C(=O)N[C@@H](Cc2ccc3ccccc3c2)C(=O)NC2(C(=O)N[C@@H](CCC(=O)O)C(=O)N[C@@H](CC(N)=O)C(=O)N[C@@H](Cc3cccnc3)C(=O)N(C)CC(N)=O)CCOCC2)NC1=O
protein binding (human alpha-1-acid glycoprotein 0.14%; equilibrium dialysis; 1 µM): 8.49 ± 1.69%

Cc1nc2cccc(OCC(C)(C)C(=O)NC(C)C)c2c(N)c1C(=O)[O-].[Na+]
revertant colonies (Salmonella typhimurium; Ames preincubation; TA1535; 0.32 mg/plate, with: without rat liver S9): 15 ± 5 colonies/plate

Cc1nc(=O)c2cc(CN(C)c3ccc(C(=O)NCc4ccccn4)s3)ccc2[nH]1
uptake from medium (Mycobacterium tuberculosis; H37Rv; 10 µM, 24 h): 55.1%

O=C(O)CCCOc1ccc(O)cc1-c1cc(-c2ccccc2C(F)(F)F)n(-c2ccccc2)n1
growth-inhibiting concentration (Salmonella typhimurium; Ames test; TA100; concentration not given, without S9 metabolic activation): ≥ 2500 µg/plate

O=C(NS(=O)(=O)c1cccs1)c1cc2ccccc2n1Cc1ccc(Br)c2ccccc12
body weight (KM mouse, chronic hyperuricaemia model; dose not given, day 1): 24.4 g

COc1cc2c(cc1NC(=O)c1cncn1C)C[C@H]1[C@H]3CCCC[C@@]23CCN1C
Papp B→A (Caco-2; 10 µM, pH 6.5): 69.8 ×10⁻⁶ cm/s

CC1(F)CN(C(=O)Cn2c(=O)c(C(=O)NCc3ccc(Cl)cc3)cc3nc(N4CCN(CCN)C4=O)cnc32)C1
selectivity ratio (human cytomegalovirus; MRC-5, Davis; reference: CC50 over EC50): > 200

O=C(c1cccc(-c2ccc3ncnc(Nc4ccc(OCc5cccc(F)c5)c(Cl)c4)c3c2)c1)N1CCOCC1
selectivity ratio (Trypanosoma cruzi; NIH 3T3; reference: NIH 3T3 TC50 over T. cruzi EC50): 1.5

Cc1cc(-c2ccc3ccccc3c2)nnc1NCCN1CCN(C)CC1
t1/2 (Cytochrome P450 4F2 (Homo sapiens, UniProt P78329); substrate; recombinant enzyme; 1000 nM): > 30 min

For quick reference, copied from above:
CC1(F)CN(C(=O)Cn2c(=O)c(C(=O)NCc3ccc(Cl)cc3)cc3nc(N4CCN(CCN)C4=O)cnc32)C1
selectivity ratio (human cytomegalovirus; MRC-5, Davis; reference: CC50 over EC50): > 200
